Results of several laboratories.
Each line is one published result; not all experiments were run side by side. Several values in a cell are separate wells, animals, samples, runs or records. Numbers after ± are the reported error.
UniProt P42866, sequence (whole entry, looked up): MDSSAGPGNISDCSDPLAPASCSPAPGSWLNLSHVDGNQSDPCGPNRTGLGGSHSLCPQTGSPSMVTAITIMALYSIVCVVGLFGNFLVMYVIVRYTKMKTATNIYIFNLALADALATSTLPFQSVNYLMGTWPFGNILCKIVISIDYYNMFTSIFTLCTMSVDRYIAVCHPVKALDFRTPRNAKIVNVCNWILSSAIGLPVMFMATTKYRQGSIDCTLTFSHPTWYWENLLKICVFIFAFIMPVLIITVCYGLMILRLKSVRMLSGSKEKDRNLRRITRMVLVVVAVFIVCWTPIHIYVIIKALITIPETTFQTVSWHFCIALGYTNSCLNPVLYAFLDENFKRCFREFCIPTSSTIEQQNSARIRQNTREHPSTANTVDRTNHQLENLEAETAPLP
UniProt Q9NS66, sequence (whole entry, looked up): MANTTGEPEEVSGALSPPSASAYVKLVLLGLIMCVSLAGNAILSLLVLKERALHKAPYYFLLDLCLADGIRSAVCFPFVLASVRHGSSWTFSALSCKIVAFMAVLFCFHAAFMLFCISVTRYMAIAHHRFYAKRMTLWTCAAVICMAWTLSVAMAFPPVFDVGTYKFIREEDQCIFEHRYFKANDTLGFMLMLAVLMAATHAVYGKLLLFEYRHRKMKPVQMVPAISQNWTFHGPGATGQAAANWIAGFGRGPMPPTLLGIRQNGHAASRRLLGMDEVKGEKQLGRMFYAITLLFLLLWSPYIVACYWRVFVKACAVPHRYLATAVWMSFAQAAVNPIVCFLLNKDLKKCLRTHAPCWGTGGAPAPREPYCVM
UniProt Q06151, sequence (whole entry, unmodified, looked up): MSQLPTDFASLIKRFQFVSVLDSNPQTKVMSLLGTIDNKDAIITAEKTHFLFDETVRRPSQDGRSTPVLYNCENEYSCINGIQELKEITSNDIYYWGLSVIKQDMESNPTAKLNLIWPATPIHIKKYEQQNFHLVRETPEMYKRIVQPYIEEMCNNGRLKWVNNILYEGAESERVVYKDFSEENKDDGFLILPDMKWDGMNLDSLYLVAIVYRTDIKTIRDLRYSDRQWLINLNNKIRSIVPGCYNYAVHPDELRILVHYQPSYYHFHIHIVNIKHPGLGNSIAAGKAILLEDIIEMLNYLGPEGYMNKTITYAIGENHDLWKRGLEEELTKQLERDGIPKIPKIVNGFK
UniProt P09936, sequence (whole entry, looked up): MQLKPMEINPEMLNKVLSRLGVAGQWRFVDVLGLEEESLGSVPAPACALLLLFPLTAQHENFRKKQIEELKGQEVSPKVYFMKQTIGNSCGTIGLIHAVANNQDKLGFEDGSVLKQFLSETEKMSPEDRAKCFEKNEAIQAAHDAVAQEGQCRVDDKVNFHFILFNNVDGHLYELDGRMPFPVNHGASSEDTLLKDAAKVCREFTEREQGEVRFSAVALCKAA
UniProt P20782, sequence (whole entry, looked up): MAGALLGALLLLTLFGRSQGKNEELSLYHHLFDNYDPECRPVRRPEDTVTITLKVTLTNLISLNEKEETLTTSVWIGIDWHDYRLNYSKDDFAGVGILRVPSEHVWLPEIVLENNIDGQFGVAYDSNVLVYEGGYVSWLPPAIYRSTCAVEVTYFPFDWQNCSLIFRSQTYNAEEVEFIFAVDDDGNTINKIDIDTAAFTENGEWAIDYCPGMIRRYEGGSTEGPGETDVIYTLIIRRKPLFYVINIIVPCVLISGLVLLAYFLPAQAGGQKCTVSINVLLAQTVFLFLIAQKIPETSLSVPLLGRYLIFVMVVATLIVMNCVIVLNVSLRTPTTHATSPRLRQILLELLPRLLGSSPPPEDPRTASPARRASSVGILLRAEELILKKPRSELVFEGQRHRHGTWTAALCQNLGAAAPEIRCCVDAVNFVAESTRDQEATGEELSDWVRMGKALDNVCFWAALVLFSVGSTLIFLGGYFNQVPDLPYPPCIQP
UniProt Q06187, sequence (whole entry, looked up): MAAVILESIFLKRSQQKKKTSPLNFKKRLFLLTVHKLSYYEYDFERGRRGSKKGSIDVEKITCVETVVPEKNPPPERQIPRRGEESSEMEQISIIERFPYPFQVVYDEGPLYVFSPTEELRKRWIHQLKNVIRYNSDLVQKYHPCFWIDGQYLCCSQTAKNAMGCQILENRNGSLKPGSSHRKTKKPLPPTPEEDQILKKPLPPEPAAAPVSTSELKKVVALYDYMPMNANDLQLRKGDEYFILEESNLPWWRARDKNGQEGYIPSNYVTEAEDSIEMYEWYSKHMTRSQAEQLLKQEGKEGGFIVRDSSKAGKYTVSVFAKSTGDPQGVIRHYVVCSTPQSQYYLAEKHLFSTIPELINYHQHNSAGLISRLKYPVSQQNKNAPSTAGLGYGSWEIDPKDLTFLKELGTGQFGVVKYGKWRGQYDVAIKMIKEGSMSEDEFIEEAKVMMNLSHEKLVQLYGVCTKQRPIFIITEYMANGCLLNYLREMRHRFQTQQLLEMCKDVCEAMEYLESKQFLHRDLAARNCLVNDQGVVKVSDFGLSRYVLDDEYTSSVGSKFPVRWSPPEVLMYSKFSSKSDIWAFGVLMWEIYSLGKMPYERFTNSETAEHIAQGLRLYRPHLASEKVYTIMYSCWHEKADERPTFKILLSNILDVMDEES
UniProt P08988, sequence (whole entry, looked up): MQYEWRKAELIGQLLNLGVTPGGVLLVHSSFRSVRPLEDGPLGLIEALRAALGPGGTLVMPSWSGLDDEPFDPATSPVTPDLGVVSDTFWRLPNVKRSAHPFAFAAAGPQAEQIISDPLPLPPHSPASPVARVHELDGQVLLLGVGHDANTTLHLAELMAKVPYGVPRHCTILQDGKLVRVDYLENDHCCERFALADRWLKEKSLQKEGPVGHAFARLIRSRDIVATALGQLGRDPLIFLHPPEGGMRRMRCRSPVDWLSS
UniProt Q8WU58, sequence (whole entry, looked up): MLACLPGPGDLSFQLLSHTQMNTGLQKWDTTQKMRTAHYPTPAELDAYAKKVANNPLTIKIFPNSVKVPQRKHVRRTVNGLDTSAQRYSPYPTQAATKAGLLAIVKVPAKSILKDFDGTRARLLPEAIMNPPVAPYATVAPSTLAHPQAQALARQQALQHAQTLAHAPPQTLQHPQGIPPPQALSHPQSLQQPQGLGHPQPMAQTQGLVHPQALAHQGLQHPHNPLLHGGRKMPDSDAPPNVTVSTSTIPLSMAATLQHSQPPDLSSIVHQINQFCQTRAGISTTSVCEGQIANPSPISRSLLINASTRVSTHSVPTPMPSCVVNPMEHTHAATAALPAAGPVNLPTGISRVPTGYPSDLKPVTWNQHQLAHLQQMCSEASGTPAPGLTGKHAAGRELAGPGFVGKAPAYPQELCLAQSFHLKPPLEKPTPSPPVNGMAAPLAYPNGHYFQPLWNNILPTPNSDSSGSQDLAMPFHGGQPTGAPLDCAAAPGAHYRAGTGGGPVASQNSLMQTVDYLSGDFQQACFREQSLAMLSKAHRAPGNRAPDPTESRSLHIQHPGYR
UniProt P00942, sequence (whole entry, unmodified, looked up): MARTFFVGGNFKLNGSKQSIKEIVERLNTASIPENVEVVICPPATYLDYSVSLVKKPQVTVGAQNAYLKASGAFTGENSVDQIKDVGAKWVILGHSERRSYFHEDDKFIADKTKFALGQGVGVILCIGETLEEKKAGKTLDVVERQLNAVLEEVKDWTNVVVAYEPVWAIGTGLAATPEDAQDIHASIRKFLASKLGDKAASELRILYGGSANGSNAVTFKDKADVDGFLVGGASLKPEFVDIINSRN
UniProt P02716, sequence (whole entry, looked up): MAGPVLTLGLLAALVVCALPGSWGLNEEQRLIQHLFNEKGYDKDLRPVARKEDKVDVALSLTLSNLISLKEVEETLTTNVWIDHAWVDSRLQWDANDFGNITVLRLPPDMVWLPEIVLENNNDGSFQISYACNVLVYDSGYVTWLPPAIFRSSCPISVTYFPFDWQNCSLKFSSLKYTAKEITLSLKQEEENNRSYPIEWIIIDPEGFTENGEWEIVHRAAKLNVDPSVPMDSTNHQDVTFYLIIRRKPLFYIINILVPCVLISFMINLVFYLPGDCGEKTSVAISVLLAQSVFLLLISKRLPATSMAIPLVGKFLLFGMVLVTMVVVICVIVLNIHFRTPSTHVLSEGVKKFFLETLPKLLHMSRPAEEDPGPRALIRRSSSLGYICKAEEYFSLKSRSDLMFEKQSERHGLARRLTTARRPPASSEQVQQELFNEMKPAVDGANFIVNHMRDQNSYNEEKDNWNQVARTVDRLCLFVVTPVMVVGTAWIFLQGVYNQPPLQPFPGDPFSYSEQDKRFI
UniProt P04756, sequence (whole entry, looked up): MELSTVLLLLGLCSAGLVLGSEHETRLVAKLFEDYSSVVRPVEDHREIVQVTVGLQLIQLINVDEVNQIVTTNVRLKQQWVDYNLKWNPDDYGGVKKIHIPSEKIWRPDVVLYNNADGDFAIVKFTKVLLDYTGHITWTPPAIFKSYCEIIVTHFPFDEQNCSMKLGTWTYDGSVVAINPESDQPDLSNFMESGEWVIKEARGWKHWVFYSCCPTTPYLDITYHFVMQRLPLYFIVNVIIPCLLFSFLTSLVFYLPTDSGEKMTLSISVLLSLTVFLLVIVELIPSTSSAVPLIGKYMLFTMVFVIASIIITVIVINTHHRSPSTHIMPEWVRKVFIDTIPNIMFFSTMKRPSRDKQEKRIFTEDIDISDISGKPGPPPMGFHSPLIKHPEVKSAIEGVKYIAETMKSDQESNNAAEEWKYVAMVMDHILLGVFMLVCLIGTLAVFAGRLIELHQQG
UniProt Q93015, sequence (whole entry, looked up): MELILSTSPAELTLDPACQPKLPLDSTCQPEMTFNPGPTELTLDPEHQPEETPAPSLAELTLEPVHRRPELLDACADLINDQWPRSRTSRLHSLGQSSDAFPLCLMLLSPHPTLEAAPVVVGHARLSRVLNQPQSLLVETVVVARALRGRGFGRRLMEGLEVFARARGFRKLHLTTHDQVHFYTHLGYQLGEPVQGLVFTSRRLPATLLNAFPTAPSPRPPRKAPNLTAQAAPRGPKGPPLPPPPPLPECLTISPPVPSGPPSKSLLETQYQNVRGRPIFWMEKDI

[2H]c1c([2H])c([C@]2([2H])CCCN2C(=O)C(C)(C)Oc2ccc3cn[nH]c3c2)c([2H])c([2H])c1C([2H])([2H])[2H] — remaining binding (SIK3 (Homo sapiens, UniProt Q9Y2K2); KINOMEscan; 1 µM; baseline: DMSO control): 80%
O=C(O)Cc1c[nH]cn1 — normalised MST signal (SLC6A6 (Homo sapiens, UniProt P31641, Y138A); binding, microscale thermophoresis; 1.95 µM, room temperature, with: 50 nM labelled protein; higher = more binding): 0.0517
COc1ccc(N2C(=O)N(c3c(C)cccc3Cl)Cc3cnc(Nc4ccc(C5CCN(C)CC5)cc4OC)nc32)nc1 — inhibition (FLT4 (Homo sapiens, UniProt P35916); kinase activity; 0.5 µM): 45%
O=C(O)c1coc(C(=O)CCl)c1 — labelling (UCHL1 (Homo sapiens, UniProt P09936); covalent, intact protein LC-MS; 12.5 µM): 19%
CCC[N+]1(CC)CCN(c2ccccc2Cl)CC1.[I-] — ACh response (Nicotinic acetylcholine receptor alpha1/beta1/epsilon/delta (Mus musculus, UniProt P02716+P04756+P09690+P20782); ion current, inhibitor, two-electrode voltage clamp; Xenopus oocytes; 30 µM, after co-application, unit not given, with: ACh 30 µM; baseline: ACh alone): 0.641 ± 0.044
NCCc1ccc(O)cc1 — product formation (N-alpha-acetyltransferase 80 (NAA80, Homo sapiens, UniProt Q93015); substrate, DTNB; 2 mM, 30 min, 37 °C, with: acetyl-CoA 500 µM): -0.09 µM
COc1ccc(CNC(=O)[C@@H]2CS[C@H]3CS[C@H](CS)N32)cc1 — activity (sfhI (Serratia fonticola, UniProt Q9RMI1); activity class; concentration not given): inactive
C[C@@H](NC(=O)[C@@H](N)Cc1ccc(O)cc1)C(=O)NCC(=O)N(C)[C@@H](Cc1ccccc1)C(=O)NCCO — GTPγS binding (Oprm1 (Mus musculus, UniProt P42866); agonist; mouse spinal cord membranes; 562 nM; baseline: baseline): 31.6% and 42.6% and 28.9% and 25.8% and 29.5% and 27% and 39.9% and 33.2%
O=C(c1ccc(Oc2ccccc2)cc1Cl)c1c[nH]c2ncnc(N[C@@H]3CC[C@@H](CO)OC3)c12 — residence time (Tyrosine-protein kinase BTK, non-phosphorylated (BTK, Homo sapiens, UniProt Q06187); binding): 57.5 min
CN(C(=O)n1cnc(-c2ccc[n+]([O-])c2)c1)C1CCCCC1 — inhibition (Faah (Rattus norvegicus, UniProt P97612); probe labelling, inhibitor, competitive ABPP; rat brain membrane fraction; 10 µM, with: azido-FP probe): 57.7%
C[n+]1cn([C@@H]2O[C@H](COP(=O)([O-])OP(=O)(O)OP(=O)(O)OC[C@H]3O[C@@H](n4cnc5c(=O)[nH]c(N)nc54)[C@H](O)[C@@H]3O)[C@@H](O)[C@H]2O)c2nc(N)[nH]c(=O)c21 — stoichiometry first site (m7GpppX diphosphatase (DCS1, Saccharomyces cerevisiae, UniProt Q06151, H268N); binding, ITC): 1.01
Clc1cccc(COc2ccccc2CNCc2cccnc2)c1 — highest concentration without inhibition (Aminoglycoside N(3)-acetyltransferase IV (aacC4, Salmonella sp, UniProt P08988); neomycin acetylation, inhibitor; with: neomycin): > 200 µM
C[C@H]1CN(c2n[nH]c3nc(N[C@H]4CC[C@H](NS(=O)(=O)CCC(F)(F)F)CC4)ncc23)CCO1 — remaining binding (Protein FAM222B (Homo sapiens, UniProt Q8WU58); Kinobeads competition; HEK293/K562/placenta extract; 20 µM; baseline: vehicle): 18%
O=C(O)COP(=O)(O)O — Ki ratio (TPI1 (Saccharomyces cerevisiae, UniProt P00942, Y208A); enzyme activity, competitive inhibitor, GPDH/NADH-coupled; pH 4.9, 25 °C, ionic strength 0.1 NaCl, with: glyceraldehyde 3-phosphate substrate; baseline: mutant over wild type): 67
COc1cc(N)c(Cl)cc1C(=O)NC1CN2CCC1CC2 (stereo not shown) — log2 fold change (Probable G-protein coupled receptor 173 (GPR173, Homo sapiens, UniProt Q9NS66); β-arrestin recruitment, TANGO luminescence, item: GPR173; concentration not given; baseline: basal luminescence): 0.256
CCCCCC[C@H]1C(=O)O[C@H](C)[C@H](NC(=O)c2cccc(NC=O)c2O)C(=O)O[C@@H](C)[C@@H]1OC(=O)CC(C)C — probe labelling (MGLL (Homo sapiens, UniProt Q99685); gel-based ABPP; U-87 MG; concentration not given, 2 h, with: 10 nM LEI-463-Cy5): decreased

Excerpt of the above:
C[n+]1cn([C@@H]2O[C@H](COP(=O)([O-])OP(=O)(O)OP(=O)(O)OC[C@H]3O[C@@H](n4cnc5c(=O)[nH]c(N)nc54)[C@H](O)[C@@H]3O)[C@@H](O)[C@H]2O)c2nc(N)[nH]c(=O)c21 — stoichiometry first site (m7GpppX diphosphatase (DCS1, Saccharomyces cerevisiae, UniProt Q06151, H268N); binding, ITC): 1.01
CCC[N+]1(CC)CCN(c2ccccc2Cl)CC1.[I-] — ACh response (Nicotinic acetylcholine receptor alpha1/beta1/epsilon/delta (Mus musculus, UniProt P02716+P04756+P09690+P20782); ion current, inhibitor, two-electrode voltage clamp; Xenopus oocytes; 30 µM, after co-application, unit not given, with: ACh 30 µM; baseline: ACh alone): 0.641 ± 0.044
